# Measurements gathered from unrelated publications.
# Each line is one published result; not all experiments were run side by side.
# Target: Dual specificity mitogen-activated protein kinase kinase 2 (MAP2K2, Homo sapiens, UniProt P36507)
SMILES,test,test system,conditions,scale,measurement,result
COc1c(Cl)cccc1Nc1c(-c2ccncc2C#C[C@@]2(C)CCCN2C(=O)/C=C/CN(C)C)[nH]c2c1C(=O)NCC2,"cell-free assay, competition with immobilised ligand",,3 µM,,remaining binding,84%
COc1cc(Nc2nccc(-c3cnn4nc(OC)ccc34)n2)cc(C(F)(F)F)c1,"binding, competition with immobilised ligand",,1 µM,,remaining binding,83%
CC(C)=CC1OC(C)(C)C2C=C3C(=O)C(Cl)=CC(O)C3C3C(O)C4OC4C(=O)C132 (stereo not shown),"cell-free assay, competition with immobilised ligand",,10 µM,,remaining binding,61%
Cc1ccc(-c2c(/C=C(\C#N)C(=O)NC(C)C)n(CCCO)c3ncnc(N)c23)cc1,"cell-free assay, competition with immobilised ligand",,1 µM,,remaining binding,71%
C=CC(=O)Nc1cc(-c2nn(C3CCN(CCNC(=O)[C@H](C)CCC45CC6CC(CC(C6)C4)C5)CC3)c3ncnc(N)c23)ccc1Oc1ccccc1,"inhibitor, KiNativ profiling",biochemical,2 µM,,inhibition,40%
Nc1ncc2c(n1)-c1c([nH]c3ccc(C4=CCOCC4)cc13)CCC2,"binding, competition with immobilised ligand",,1 µM,,remaining binding,100%
CN1CCN(Cc2ccc(NC(=O)c3cccc(C#Cc4cnc(N)c5ncccc45)c3)cc2C(F)(F)F)CC1,"cell-free assay, competition with immobilised ligand",,0.5 µM,,remaining binding,71%
Nc1ncc(-c2cc(-c3cnn(CC(F)(F)F)c3)ncc2F)nc1C(=O)NC1CNCC(F)C1 (stereo not shown),enzyme activity,,1 µM,reference: DMSO control,remaining activity,101%
Cc1cccc(O[C@H]2CCC[C@@H](C(C)CNCc3ccncc3)C2)c1 (relative stereo),"enzyme activity, inhibitor",,1 µM,,inhibition,-2%
NC(=O)[C@@H](O)C[C@H]1CCc2sc3ncnc(O[C@H]4CC[C@H](N5CCOCC5)CC4)c3c21,"enzyme activity, inhibitor",,10 µM,,inhibition,2%
C=CC(=O)Nc1cccc(-c2cnc3[nH]cc(C(=O)NC(C)(C)C)c3n2)c1,"enzyme activity, inhibitor",,0.1 µM,,inhibition,5%
Cc1c[nH]c2nccc(-c3ccc(C(=O)N[C@@H]4c5c(F)cc(C(F)F)cc5C[C@@H]4O)cn3)c12,"binding, competition with immobilised ligand",,3 µM,,remaining binding,1.1%
COc1ccc(NC(=O)Nc2ccc3c(c2)C(=O)N(C(C)CO)CC(C)C(CN(C)Cc2ccc4c(c2)OCO4)O3)cc1 (stereo not shown),"binding, competition with immobilised ligand",,10 µM,,remaining binding,73%
CCn1cc(C(=O)O)c(=O)c2c(N)c(F)c(NC3CCCCC3)cc21,kinase activity,,"0.1 µM, with: ATP at Km",,inhibition,4.3%
C=CC(=O)N1CCCC(n2c(=O)c3ncccc3n(Cc3ccc(Oc4ccccc4)cc3)c2=O)C1 (stereo not shown),"cell-free assay, competition with immobilised ligand",,1 µM,,remaining binding,72%
CNC1C[S+]2CC[S+]3CC[S+](C1)[Ru-4]321([N]=C=S)[n]2c3ccc(OC)cc3c3c4c(c5cc(F)c[n+]1c5c32)C(=O)NC4=O (stereo not shown),KinomeScan,,0.1 µM,reference: untreated,remaining binding,100%
